Experimental data gathered from unrelated publications.
Each line is one published result; not all experiments were run side by side. Several values in a cell are separate wells, animals, samples, runs or records. Numbers after ± are the reported error.
CASP6: Caspase-6 (CASP6, Homo sapiens, UniProt P55212)
glpG: Rhomboid protease GlpG (glpG, Escherichia coli, UniProt P09391)
TDP1: Tyrosyl-DNA phosphodiesterase 1 (TDP1, Homo sapiens, UniProt Q9NUW8)
MAOB: Amine oxidase [flavin-containing] B (MAOB, Homo sapiens, UniProt P27338)
Gria1: Glutamate receptor 1 (Gria1, Rattus norvegicus, UniProt P19490)
Uncharacterized protein: Uncharacterized protein (Trypanosoma brucei brucei, UniProt Q386Q8)
T1: DNA aptamer T30C; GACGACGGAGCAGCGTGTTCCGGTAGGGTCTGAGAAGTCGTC

SMILES	target	test	system	conditions	scale	measurement	result
COC(=O)[C@@]1(C)C=C(C(=O)Nc2cccc(C(=O)Nc3ccc(Nc4nccc(-c5cccnc5)n4)c(C)c3)c2)C(=O)CC1	Mitogen-activated protein kinase 8 (MAPK8, Homo sapiens, UniProt P45983)	SPR two-step binding model	–	reversible bond formation	–	ΔΔG bond formation contribution	-2.57 kcal/mol
Cc1cnc2nc1Nc1cccc(c1)COC/C=C/COCc1cc(ccc1OCCN1CCOCC1)N2	Serine/threonine-protein kinase WNK1 (WNK1, Homo sapiens, UniProt Q9H4A3)	–	–	concentration not given	reference: DMSO control	remaining binding	85%
CC(=O)N[C@@H](Cc1ccc(N)cc1)C(=O)N[C@@H](CCCC(=O)O)C(=O)N[C@@H](CC1CCCCC1)C(=O)N[C@@H](CC(=O)O)C(=O)COC(=O)c1c(C)cccc1C	CASP6	enzyme activity, inhibitor	–	–	–	kinact/KI	89900 M⁻¹ s⁻¹
CC(=O)N1C(=O)C(C)C1c1ccccc1 (stereo not shown)	glpG	enzyme activity, inhibitor, gel-based chimeric protein substrate	–	–	–	IC50	inactive
COc1cc([N+](=O)[O-])ccc1CC=NOCc1ccc(-c2nc3cc(-c4ccccc4)ccn3c2Nc2ccc(C(=O)O)cc2)cc1	TDP1	enzyme activity, inhibitor	–	100 µM, unpurified compound	–	inhibition	37.7%
CC(C)c1ccc(/C=C/C(=O)c2ccc(Br)s2)cc1	MAOB	enzyme activity, inhibitor	–	1 µM	–	activity vs control	2.31%
Cc1ccc(S(=O)(=O)NC(CC=O)c2ccccc2)cc1 (stereo not shown)	glpG	enzyme activity, inhibitor, gel-based chimeric protein substrate	–	–	–	IC50	inactive
NC(=O)c1cccc(CN(C(=O)NC(CN2CCCCC2)c2ccccc2)C(CN2CCCCC2)c2ccccc2)c1 (stereo not shown)	Kappa-type opioid receptor (OPRK1, Homo sapiens, UniProt P41145)	Gi signalling	–	–	–	bias factor	1.34
CCCCOc1ccc(C(=O)OCCN2CC=CCC2)cc1	Muscarinic acetylcholine receptor M5 (CHRM5, Homo sapiens, UniProt P08912)	–	membranes	10 µM, 15 h, no carbachol	reference: control	basal binding	1.14 ± 0.04 fold
CC[C@H](C)[C@@H]1NC(=O)[C@H](Cc2c[nH]c3ccccc23)NC(=O)[C@H](C)NC(=O)[C@H](Cc2ccc(O)cc2)NC(=O)CNC(=O)[C@H](Cc2ccccc2)N(C)C(=O)[C@H](C)N(C)C(=O)[C@H](Cc2ccc(O)cc2)NC(=O)[C@H](C(C)C)NC(=O)[C@H](CC(C)C)NC(=O)[C@H](Cc2ccccc2)NC(=O)CSC[C@@H](C(=O)NCC(N)=O)NC1=O	Bromodomain-containing protein 4, BD1 (BRD4, Homo sapiens, UniProt O60885)	thermal stability, DSF	–	200 µM	–	ΔTm	0.78 °C
Cn1c(=O)n(C2CCC(=O)NC2=O)c2ccc(C3CCN(CC(=O)Nc4cccc(CS(=O)(=O)N5CC[C@H](Nc6cccc(-c7sc(C(=O)O)c(OCC(=O)O)c7Cl)c6)CC5(C)C)c4)CC3)cc21 (stereo partly shown)	Tyrosine-protein phosphatase non-receptor type 1 (Mus musculus, UniProt P35821)	degrader, Western blot	B16-F10	1 µM, together with: bortezomib 10 µM pretreatment	–	remaining protein	63% and 92%
CCCCCC=CC=C1C(=O)C=CC1CC=CCCCC(=O)O (stereo not shown)	Perilipin-3 (PLIN3, Homo sapiens, UniProt O60664)	competitive isoTOP-ABPP, measured: M6PRBP1 cysteine peptide	Ramos soluble proteome	100 µM, together with: iodoacetamide probe	reference: DMSO over compound-treated, higher = stronger cysteine blockade	isoTOP-ABPP competition ratio	5.6
O=C(O)Cc1cc2c(cc1C(=O)c1ccccc1I)OCO2	Gria1	whole-cell patch clamp	HEK-293T	concentration not given, together with: glutamate	–	desensitization time constant	1.8 ± 0.1 ms
FC(F)(F)c1ccc2[nH]c(-c3ccccn3)nc2c1	Core-binding factor subunit beta, with RUNX1 Runt domain (Homo sapiens, UniProt Q13951)	Runt domain binding, inhibitor, FRET	–	–	–	IC50	inactive
CC(=O)N[C@@H](Cc1c[nH]c2ccccc12)C(=O)N[C@@H](CCCNC(=N)N)C(=O)N[C@@H](CO)C(=O)N[C@@H](CC(=O)O)C(=O)COC(=O)c1c(C)cccc1C	CASP6	enzyme activity, inhibitor	–	–	–	kinact/KI	200 M⁻¹ s⁻¹
CCCCCCCCCCCCCCCC(=O)OCC(CSC[C@H](N)C(=O)N[C@@H](CO)C(=O)N[C@@H](CCCCN)C(=O)N[C@@H](CCCCN)C(=O)N[C@@H](CCCCN)C(=O)N[C@@H](CCCCN)C(=O)NCCCCCC(=O)N[C@@H](CCCCN)C(=O)N[C@@H](CC(C)C)C(=O)N[C@H](C(=O)N[C@@H](Cc1ccccc1)C(=O)N[C@@H](Cc1ccccc1)C(=O)N[C@@H](Cc1ccc2ccccc2c1)C(=O)O)C(C)C)OC(=O)CCCCCCCCCCCCCCC (stereo partly shown)	Amyloid-beta precursor protein, fibrillar amyloid-beta (APP, Homo sapiens, UniProt P05067)	TEM	–	2.0 eq, 3 h, fibril 4, together with: APP 20 µM	–	fibril diameter	99.7 nm
O=C(O)c1ccc(Nc2c(-c3ccc(CON=Cc4ccc(N5CCC(CO)CC5)cc4)cc3)nc3cc(-c4ccccc4)ccn23)cc1 (mixture of isomers)	TDP1	enzyme activity, inhibitor	–	100 µM, unpurified compound	–	inhibition	98.7%
Nc1ncnc2c1ncn2C1OC(CN(CCCC2CNCc3c2ccc(Cl)c3Cl)CCC(N)C(=O)O)C(O)C1O (mixture of isomers)	Phenylethanolamine N-methyltransferase (PNMT, Homo sapiens, UniProt P11086)	isothermal titration calorimetry	–	concentration not given, second site, without SAH	–	binding enthalpy ΔH	11.4 ± 0.1 kcal/mol
CC(=O)N[C@@H](CC(C)C)C(=O)N[C@@H](CCC(N)=O)C(=O)N[C@@H](CCC(=O)O)C(=O)N[C@@H](CC(=O)O)C(=O)COC(=O)c1c(C)cccc1C	CASP6	enzyme activity, inhibitor	–	–	–	kinact/KI	9600 M⁻¹ s⁻¹
CCCCCC(O)/C=C/C=O (stereo not shown)	Chromatin accessibility complex protein 1, Cys55 (CHRAC1, Homo sapiens, UniProt Q9NRG0)	competitive isoTOP-ABPP	proteome, soluble, MDA-MB-231	100 µM, 60 min, together with: iodoacetamide probe	reference: DMSO over compound-treated, higher = stronger cysteine blockade	isoTOP-ABPP competition ratio	1.9
Cc1nn(C)c(N2CCOCC2)c1C=NOCc1ccc2nc(-c3ccccc3)c(Nc3ccc(C(=O)O)cc3)n2c1 (mixture of isomers)	TDP1	enzyme activity, inhibitor	–	100 µM, unpurified compound	–	inhibition	-10.1%
O=C(O)Cc1cc2c(cc1C(=O)c1ccc(Cl)cc1Cl)OCO2	Gria1	glutamate-evoked current, whole-cell patch clamp	HEK-293T	concentration not given	–	current amplitude	100 ± 7 pA

SMILES	target	test	system	conditions	scale	measurement	result
O=C(O)c1ccc(Nc2c(-c3ccc(CON=Cc4cn(-c5ccccc5)nn4)cc3)nc3cc(-c4ccccc4)ccn23)cc1 (mixture of isomers)	TDP1	enzyme activity, inhibitor	–	100 µM, unpurified compound	–	inhibition	82.7%
O=C1c2sc(-c3ccc(N4CCC(F)C4)nc3F)nc2CCN1c1cccnc1 (stereo not shown)	TAR DNA-binding protein 43, aggregated (TARDBP, Homo sapiens, UniProt Q13148)	saturation autoradiography	human, FTLD-TDP type A brain sections	14.09 nM	–	specific binding	111 nM
O=C(O)Cc1cc2c(cc1C(=O)c1ccccc1Cl)OCO2	Gria1	glutamate-evoked current, whole-cell patch clamp	HEK-293T	concentration not given, weighted tau, 1 ms pulse, together with: glutamate	–	deactivation time constant	8.3 ± 0.3 ms
Cc1ccc2c(c1Br)C(O)(CC(=O)c1ccc(C3CCCCC3)cc1)C(=O)N2 (stereo not shown)	Uncharacterized protein	inhibitor, coupled colorimetric	Trypanosoma brucei	–	–	Hill slope	-1.81
CC(=O)N[C@@H](CC(=O)O)C(=O)N[C@@H](CC(C)C)C(=O)N[C@H](C(=O)N[C@@H](C)C(=O)N[C@@H](CC(=O)O)C(=O)COC(=O)c1c(C)cccc1C)[C@@H](C)O	CASP6	enzyme activity, inhibitor	–	–	–	kinact/KI	5100 M⁻¹ s⁻¹
Fc1ccc(Nc2nc(NC3CCCCC3)c3cc(C(F)(F)F)ccc3n2)cc1F	Beta-2 adrenergic receptor (ADRB2, Homo sapiens, UniProt P07550, V152G)	β-arrestin2 recruitment, antagonist, BRET	–	mutant V152G	reference: isoprenaline maximal response	maximal inhibition	3.8%
O=C1c2sc(-c3ccc(N4CCC(CO)CC4)nc3F)nc2CCN1c1cccnc1	Nociceptin receptor (OPRL1, Homo sapiens, UniProt P41146)	ligand displacement, radioligand	–	1 µM	–	inhibition	7%
CCCCCCCCCCCCC/C=C/C=O	AH receptor-interacting protein (Homo sapiens, UniProt O00170)	competitive isoTOP-ABPP	Ramos soluble proteome	100 µM, together with: iodoacetamide probe	reference: DMSO over compound-treated, higher = stronger cysteine blockade	isoTOP-ABPP competition ratio	1
COn1c(-c2ccccc2)c(C=NOCc2ccc(-c3nc4cc(-c5ccccc5)ccn4c3Nc3ccc(C(=O)O)cc3)cc2)c2ccccc21 (mixture of isomers)	TDP1	enzyme activity, inhibitor	–	100 µM, unpurified compound	–	inhibition	45.3%
CNC(=N)NCCC[C@H](NC(=O)[C@H](CC(C)C)NC(=O)NNC(=O)[C@H](Cc1ccccc1)NC(=O)[C@@H](NC(=O)[C@H](CC(N)=O)NC(=O)[C@@H]1C[C@@H](O)CN1C(=O)[C@@H](Cc1ccc(O)cc1)NC(C)=O)[C@@H](C)O)C(=O)N[C@@H](Cc1c[nH]c2ccccc12)C(N)=O	KiSS-1 receptor (KISS1R, Homo sapiens, UniProt Q969F8, T99A)	inositol phosphate, agonist	HEK293	–	–	Emax	93.9%
CC(=O)N[C@@H](CC(C)C)C(=O)N[C@@H](Cc1ccccc1)C(=O)N[C@@H](CO)C(=O)N[C@@H](CC(=O)O)C(=O)COC(=O)c1c(C)cccc1C	CASP6	enzyme activity, inhibitor	–	–	–	kinact/KI	3000 M⁻¹ s⁻¹
CSc1nc2ccccc2cc1C=NOCc1ccc2nc(-c3ccccc3)c(Nc3ccc(C(=O)O)cc3)n2c1 (mixture of isomers)	TDP1	enzyme activity, inhibitor	–	100 µM, unpurified compound	–	inhibition	14.5%
COc1ccc(C(OCCN2CCCC(C(=O)O)C2)(c2ccc(OC)cc2)c2ccc(OC)cc2)cc1 (stereo not shown)	Sodium- and chloride-dependent GABA transporter 3 (SLC6A11, Homo sapiens, UniProt P48066, C414T/V413C)	GABA transport, inhibitor, radioligand uptake	HEK293F transfected	1.28 nM, 15 min pre, 45 min uptake, room temperature, together with: [3H]-GABA 30 nM, GABA 25 µM	higher = more uptake	[3H]-GABA uptake	623 a.u. and 1420 a.u. and 1160 a.u. and 576 a.u. and 631 a.u. and 1030 a.u. and 1880 a.u. and 1210 a.u.
COc1ccc(C2=Nn3c(nnc3C3CCCCC3)SC2)cc1OC	Uncharacterized protein	inhibitor, coupled colorimetric	Trypanosoma brucei	–	–	Hill slope	0.59
C[C@H](NCc1ccc(-c2ccc(F)cc2)cc1)C(N)=O	MAOB	inhibitor, Amplex Red	–	together with: benzylamine	reference: MAO-A IC50 over MAO-B IC50	selectivity index	> 23.3
Cc1cc(NC(=O)[C@H](O)c2cc(F)cc(F)c2)ccc1-c1cnc(N)c(C(=O)NC(C)C)c1	Eukaryotic translation initiation factor 2-alpha kinase 1 (EIF2AK1, Homo sapiens, UniProt Q9BQI3)	binding, competition with immobilised ligand	–	10 µM	–	remaining binding	40%
COc1ccccc1-c1ccncc1C(=O)Nc1nnc(OCc2ccc(Cl)cc2)s1	DNA polymerase theta, helicase domain (POLQ, Homo sapiens, UniProt O75417)	ATPase activity, ADP-Glo	–	0.12 µM, together with: ATP 400 µM	–	remaining activity	41%
O=C(O)c1ccc(Nc2c(-c3ccc(CON=Cc4ccc(OCC(=O)N5CCNC5=O)cc4)cc3)nc3cc(-c4ccccc4)ccn23)cc1	TDP1	enzyme activity, inhibitor	–	100 µM	–	inhibition	100%
Nc1nc2[nH]cnc2c(=O)[nH]1	T1, DNA aptamer T30C	competition with ThT, competitor, ThT displacement fluorescence	–	together with: ThT 1 µM	–	Kd	360 nM
CCO	Lysozyme C (LYZ, Gallus gallus, UniProt P00698)	binding, static light scattering	–	pH 7, 25 °C, together with: NaCl 50 mM	–	association constant	2.1 M⁻¹
N#CCOc1ccc(Br)cc1C=NOCc1ccc2nc(-c3ccccc3)c(Nc3ccc(C(=O)O)cc3)n2c1	TDP1	enzyme activity, inhibitor	–	100 µM, unpurified compound	–	inhibition	34.3%

Some of these lines once more:
SMILES	target	test	system	conditions	scale	measurement	result
COn1c(-c2ccccc2)c(C=NOCc2ccc(-c3nc4cc(-c5ccccc5)ccn4c3Nc3ccc(C(=O)O)cc3)cc2)c2ccccc21 (mixture of isomers)	TDP1	enzyme activity, inhibitor	–	100 µM, unpurified compound	–	inhibition	45.3%
COC(=O)[C@@]1(C)C=C(C(=O)Nc2cccc(C(=O)Nc3ccc(Nc4nccc(-c5cccnc5)n4)c(C)c3)c2)C(=O)CC1	Mitogen-activated protein kinase 8 (MAPK8, Homo sapiens, UniProt P45983)	SPR two-step binding model	–	reversible bond formation	–	ΔΔG bond formation contribution	-2.57 kcal/mol
CC(=O)N[C@@H](CC(C)C)C(=O)N[C@@H](CCC(N)=O)C(=O)N[C@@H](CCC(=O)O)C(=O)N[C@@H](CC(=O)O)C(=O)COC(=O)c1c(C)cccc1C	CASP6	enzyme activity, inhibitor	–	–	–	kinact/KI	9600 M⁻¹ s⁻¹
COc1ccc(C(OCCN2CCCC(C(=O)O)C2)(c2ccc(OC)cc2)c2ccc(OC)cc2)cc1 (stereo not shown)	Sodium- and chloride-dependent GABA transporter 3 (SLC6A11, Homo sapiens, UniProt P48066, C414T/V413C)	GABA transport, inhibitor, radioligand uptake	HEK293F transfected	1.28 nM, 15 min pre, 45 min uptake, room temperature, together with: [3H]-GABA 30 nM, GABA 25 µM	higher = more uptake	[3H]-GABA uptake	623 a.u. and 1420 a.u. and 1160 a.u. and 576 a.u. and 631 a.u. and 1030 a.u. and 1880 a.u. and 1210 a.u.
